Measured values from different studies.
Lines come from different studies, so protocols differ. Values joined by “and” are separate records of one study, mostly repeats; a detail may differ. ± gives the spread as reported.
Chain of UniProt Q9UBN7 (whole entry, looked up): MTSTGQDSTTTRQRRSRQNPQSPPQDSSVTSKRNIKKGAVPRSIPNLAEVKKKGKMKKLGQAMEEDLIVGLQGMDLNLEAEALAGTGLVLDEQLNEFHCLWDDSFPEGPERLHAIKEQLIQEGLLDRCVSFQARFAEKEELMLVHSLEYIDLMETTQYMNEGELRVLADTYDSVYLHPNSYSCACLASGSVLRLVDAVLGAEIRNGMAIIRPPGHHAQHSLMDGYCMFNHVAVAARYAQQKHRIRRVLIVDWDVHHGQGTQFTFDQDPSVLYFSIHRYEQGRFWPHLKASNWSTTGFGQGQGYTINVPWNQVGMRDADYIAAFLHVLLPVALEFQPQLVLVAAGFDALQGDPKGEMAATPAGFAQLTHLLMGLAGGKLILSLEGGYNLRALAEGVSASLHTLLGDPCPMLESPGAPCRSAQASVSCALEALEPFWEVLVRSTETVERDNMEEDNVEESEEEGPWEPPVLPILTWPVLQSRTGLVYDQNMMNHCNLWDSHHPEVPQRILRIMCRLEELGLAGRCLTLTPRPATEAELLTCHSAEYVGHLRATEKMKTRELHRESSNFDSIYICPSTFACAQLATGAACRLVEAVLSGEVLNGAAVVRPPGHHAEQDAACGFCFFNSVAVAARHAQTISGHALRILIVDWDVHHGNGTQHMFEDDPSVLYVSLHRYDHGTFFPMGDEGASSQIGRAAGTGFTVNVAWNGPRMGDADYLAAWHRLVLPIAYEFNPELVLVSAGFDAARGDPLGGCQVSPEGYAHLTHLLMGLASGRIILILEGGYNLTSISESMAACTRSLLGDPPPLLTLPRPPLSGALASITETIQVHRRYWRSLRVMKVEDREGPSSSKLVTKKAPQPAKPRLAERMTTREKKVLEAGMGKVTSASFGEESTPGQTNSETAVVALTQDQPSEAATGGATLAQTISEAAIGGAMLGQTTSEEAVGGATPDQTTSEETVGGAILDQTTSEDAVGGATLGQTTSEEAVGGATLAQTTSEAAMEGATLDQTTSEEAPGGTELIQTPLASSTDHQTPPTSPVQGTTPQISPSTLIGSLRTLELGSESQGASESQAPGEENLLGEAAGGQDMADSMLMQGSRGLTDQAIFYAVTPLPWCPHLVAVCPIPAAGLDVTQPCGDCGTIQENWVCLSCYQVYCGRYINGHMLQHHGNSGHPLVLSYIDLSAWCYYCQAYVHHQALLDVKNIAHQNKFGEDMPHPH
Chain of UniProt Q92995 (whole entry, looked up): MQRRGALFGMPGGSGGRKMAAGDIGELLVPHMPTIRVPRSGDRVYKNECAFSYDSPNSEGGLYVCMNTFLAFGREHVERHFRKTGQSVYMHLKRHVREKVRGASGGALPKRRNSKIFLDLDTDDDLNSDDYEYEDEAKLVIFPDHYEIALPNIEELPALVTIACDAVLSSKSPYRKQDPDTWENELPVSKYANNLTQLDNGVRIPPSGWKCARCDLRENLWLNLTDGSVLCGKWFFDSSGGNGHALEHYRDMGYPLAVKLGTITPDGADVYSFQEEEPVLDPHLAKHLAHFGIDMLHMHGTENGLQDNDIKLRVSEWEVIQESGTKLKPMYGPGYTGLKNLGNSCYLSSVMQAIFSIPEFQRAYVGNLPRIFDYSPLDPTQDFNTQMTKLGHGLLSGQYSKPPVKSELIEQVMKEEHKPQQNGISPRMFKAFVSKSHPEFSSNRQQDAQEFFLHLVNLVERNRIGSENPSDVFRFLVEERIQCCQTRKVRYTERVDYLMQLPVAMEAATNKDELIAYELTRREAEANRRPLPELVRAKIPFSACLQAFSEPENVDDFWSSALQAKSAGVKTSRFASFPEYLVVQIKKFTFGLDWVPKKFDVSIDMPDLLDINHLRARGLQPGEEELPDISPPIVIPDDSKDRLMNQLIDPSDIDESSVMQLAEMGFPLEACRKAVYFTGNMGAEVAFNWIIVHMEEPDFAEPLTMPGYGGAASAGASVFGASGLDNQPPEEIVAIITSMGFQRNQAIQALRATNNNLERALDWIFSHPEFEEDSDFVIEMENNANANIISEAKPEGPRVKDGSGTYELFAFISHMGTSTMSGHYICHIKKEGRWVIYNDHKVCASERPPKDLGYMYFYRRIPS

Cc1cc(Nc2ncnc3ccc(NC4=NC(C)(CO)CO4)cc23)ccc1Oc1ccn2ncnc2c1 (stereo not drawn)
Cmax (arithmetic mean) (human, plasma; oral, 300 mg tucatinib single dose, day 1, tucatinib alone): 48.3 ng/mL

CN1CCN(c2cccc3c2CCN(C(=O)/C=C/c2c(-n4cnnn4)ccc(Cl)c2F)[C@@H]3C(=O)Nc2ccc(C(=O)O)cc2)C(=O)C1
discontinuations due to adverse events (healthy human subjects; intravenous infusion, 20 mg/h, 5 days): 0%

Cn1cc(-c2ccc(-c3cncc(Cl)c3N3CCC4(CCNC4=O)CC3)cc2)cn1
log2 fold change (COLO 205; gene expression, microarray, item: GADD45B mRNA; concentration not given, 6 h; baseline: untreated cells): 1.27

CCO[C@H]1CCN(Cc2c(OC)cc(C)c3[nH]ccc23)[C@H](c2ccc(C(=O)O)cc2)C1
total AUC(0-t) (healthy volunteers, plasma; oral, 200 mg single dose, geometric mean): 52300 ng·h/mL

Cc1c(-c2ccc(N3CCc4cccc(C(=O)Nc5nc6ccccc6s5)c4C3)nc2C(=O)O)cnn1CC12CC3(C)CC(C)(C1)CC(OCCNCC[C@H](O)CO)(C3)C2
QRS duration change (beagle dog, male, anaesthetised; intravenous infusion, 0.3 mg/kg/min, 45 min; baseline: vehicle): 0 ms

COc1ccccc1NC(=O)CSc1nnc(-c2ccc(F)cc2)n1C
solubility (aqueous buffer; pH 7.4): 2.66 µg/mL

CCN1/C(=C/C(C)=O)Sc2ccc(F)cc21
heart rate change (cynomolgus monkey; oral, 100 mg/kg, 1 h post-dose; baseline: pre-dose): 124 ± 20.1%

Cc1cc([C@H]2C[C@H]3[C@@H](C)SC(N)=N[C@@]3(c3ccc(F)cc3F)CO2)on1
CSF concentration (male 129/SVE mouse, CSF; subcutaneous, 50 mg/kg, 3 h): 546 nM

Nc1c(CC(=O)O)cccc1C(=O)c1ccc(Br)cc1
total uptake clearance (cynomolgus monkey hepatocytes; 37 °C, 10% monkey serum): 12.1 µL/min/10⁶ cells

CC(=O)N(C)[C@H]1CCN(C(=O)c2cnc3c(c2)C[C@](C)(c2ccc(F)cc2)N3)C1
drug-related adverse events (healthy male subjects, multiple rising dose; oral, 30 mg once daily): 25%

CCCC1CCC(C2CCC(c3cc(F)c(F)c(F)c3)CC2)CC1 (stereo not drawn)
placental accumulation (rat, placenta; 10 ng/mL in perfusate, low dose, mixture of 21 LCMs): 15.4 ± 17.8 ng/g

CCOc1c([C@H](C)n2nc(C)c3c(N)ncnc32)cc(Cl)c(F)c1[C@@H]1CNC(=O)C1
patients (item: QRS ≤100 ms; previously treated B-cell malignancy; oral, 45 mg once daily, baseline below thresholds): 100%

C[C@H]1O[C@@H](O[C@H]2CC[C@@]3(C)[C@@H](CC[C@]4(C)[C@@H]3C=C[C@]35OC[C@@]6(CCC(C)(C)C[C@H]63)[C@@H](O)C[C@]54C)[C@]2(C)CO)[C@H](O)[C@@H](O[C@@H]2O[C@H](CO)[C@@H](O)[C@H](O)[C@H]2O)[C@H]1O
plasma concentration (UHPLC-MS/MS; mouse, plasma; oral, 50 mg/kg, 4 h, pooled samples): 1 ng/mL and 1.09 ng/mL

CC(=O)N[C@@H](CS)C(=O)O
effective permeability (single-pass intestinal perfusion; Wistar rat, duodenum vs jejunum): no effect

Cc1sc2ncn(CC(=O)O)c(=O)c2c1C
Kd (Ubiquitin carboxyl-terminal hydrolase 13, ZnF-UBD domain (USP13, Homo sapiens, UniProt Q92995)): > 1000 µM

C[C@@H](Oc1ccc(S(C)(=O)=O)cc1C(=O)N1C[C@@H]2C[C@]2(c2cc(C(F)(F)F)on2)C1)C(F)(F)F
half-life at steady state (young humans, plasma; oral, 50 mg once daily, multiple dose, geometric mean): 41.6 h

Clc1cc(Cl)cc([C@H]2COC[C@@H](C3CCCCC3)N2)c1
solubility (shake-flask, LC-HRMS; aqueous buffer; 16 h, pH 6.8): < 4 µM

CC(C)=CCC/C(C)=C/C(=O)O.Cc1cc(/C=C/C#N)cc(C)c1Nc1ccnc(Nc2ccc(C#N)cc2)n1
equilibrium solubility (aqueous buffer; pH 4.5): 2.04 ± 0.06 µg/mL

C=C(C)[C@@H]1CC[C@]2(NCCN3CCS(=O)(=O)CC3)CC[C@]3(C)[C@H](CC[C@@H]4[C@@]5(C)CC=C(C6=CC[C@@](CF)(C(=O)O)CC6)C(C)(C)[C@@H]5CC[C@]43C)[C@@H]12
subjects with somnolence (healthy human volunteers; oral, 500 mg, 7 days): 0%

CCOC(=O)N1C[C@@H](c2ccc(Cl)cc2)N[C@@H](c2ccc(C(F)(F)F)cc2)C1
solubility (shake-flask, LC-HRMS; aqueous buffer; 16 h, pH 6.8): < 4 µM

COc1nc(-c2cc(C)c(N[C@@H](C)c3cc(F)cc(F)c3)nn2)ccc1-n1cnc(C)c1
MRT(0-t) (cynomolgus monkey, male, plasma; oral, 2 mg/kg): 5.98 h

O=C(O)CCC(=O)c1ccc2c(c1)CCC(=O)N2
Kd (Protein deacetylase HDAC6, ZnF-UBD domain (HDAC6, Homo sapiens, UniProt Q9UBN7)): 104 µM

N#Cc1ccc2c(c1)[C@H]1CCCN(C(=O)c3ccc4[nH]cnc4c3)[C@H]1C2
total testosterone level (human females; 10 mg, end of trial): 0.4 nmol/L

Cc1nonc1OCCNc1cc(N2CCOCC2)ccc1[N+](=O)[O-]
solubility (aqueous buffer; pH 7.4): < 1.5 µg/mL

CC[C@H](Nc1ncnc2[nH]cnc12)c1oc2ccccc2c(=O)c1-c1cccc(F)c1
elimination rate constant (human patients, plasma; oral, 600 mg twice daily, together with: romidepsin 12 mg/m2): 5.56e-05 ± 2.24e-05 s⁻¹

Cc1c(C(=O)O)ccc2c3n(nc12)[C@@H]1[C@H](C3)N(CC2CC2)[C@@]2(C(=O)Nc3cc(Cl)ccc32)[C@H]1c1cccc(Cl)c1F
half-life (female BALB/c nude mice, SJSA-1 xenograft, plasma; oral, 2 mg/kg once daily): 17.4 h and 9 h and 36.9 h and 10.8 h and 14.1 h

CNCc1ccc(-c2[nH]c3cc(F)cc4c3c2CCNC4=O)cc1
vomiting incidence (human patients; oral, 240 mg twice daily, all grades): 0%

O=C(OC(C(F)(F)F)C(F)(F)F)N1CCN(Cc2cccc(Oc3ccccc3)c2)CC1
Ktrans (PET blocking study; rhesus monkey, brain THA; 0.03 mg/kg, compound pretreatment, together with: [18F]T-401 tracer): 0.0008 min⁻¹

O=c1[nH]c(=O)n([C@H]2C[C@H](O)[C@@H](CO)O2)cc1CCC[18F]
biodistribution (male CD-1 nu/nu mice, RG2 tumour, skin; intravenous, dose not given, 2 h): 0.33 ± 0.13 %ID/g

NC1(C(=O)N[C@@H](CCO)c2ccc(Cl)cc2)CCN(c2nc[nH]c3nccc2-3)CC1
incidence of Stomatitis (metastatic CRPC patients; dose not given, grade 3 to 4, treatment-related, all doses, together with: enzalutamide 160 mg daily): 0%

CC(C)(C(=O)N1CCOc2c(C#N)cncc2C1)C(F)F
subjects with TEAE (item: eye disorders; healthy humans, both sexes; oral, 30 mg single dose): 16.7%

C[C@H]1CN(C(=O)CC#N)[C@]12CCN(c1ncnc3[nH]ccc13)C2
absolute bioavailability (human, male): 75 to 100%

CC(C)(C)c1ccc([C@@H]2COC[C@H](C3CCCC3)N2)cc1
solubility (shake-flask, LC-HRMS; aqueous buffer; 16 h, pH 6.8): < 4 µM

COc1cc(C(=O)N2CCC3(CC2)CC(=O)c2c(cnn2C(C)C)C3)cc(-c2ccc(C(=O)O)cc2)n1
HDL cholesterol change from baseline (human, fasting serum; 100 mg once daily, day 13, adjusted geometric mean): -10.7%

CCOC(=O)N1C[C@@H](c2cnc(-c3ccccc3)nc2)N[C@@H](c2ccc(-c3ccccc3)cc2)C1
solubility (shake-flask, LC-HRMS; aqueous buffer; 16 h, pH 6.8): < 4 µM

O=C(O)CCCOc1ccc([18F])cc1-c1cc(-c2ccccc2C(F)(F)F)n(-c2ccccc2)n1
radioactivity uptake (gamma counting; male ddY mice, pancreas; intravenous, 2.1 MBq, 5 min): 0.72 ± 0.14 SUV

C[C@H](CCC(=O)O[C@@H]1O[C@H](C(=O)O)[C@@H](O)[C@H](O)[C@H]1O)[C@H]1CC[C@H]2[C@@H]3[C@H](O)C[C@@H]4C[C@H](O)CC[C@]4(C)[C@H]3CC[C@]12C
Cmin (human, plasma; endogenous baseline diurnal): 0.00986 ± 0.0016 µM

CCCCOC(=O)N1CCN(C(=O)[C@H](CP(=O)(O)O)NC(=O)c2cc(N3CC[C@H](OC)C3)nc(-c3ccccc3)n2)CC1
change from baseline (item: alanine aminotransferase; human, blood; 16 mg, 24 h): -0.3 ± 4.8 U/L

CCC(CC)[C@H]1COC[C@@H](c2cccc(Br)c2)N1
solubility (shake-flask, LC-HRMS; aqueous buffer; 16 h, pH 6.8): < 4 µM

C[C@@H](NC(=O)N1C(=O)[C@H](Cc2ccnc(N)c2)[C@H]1C(=O)O)C1CCCCC1
Css (UPLC-MS/MS; healthy adult Chinese volunteers, plasma; continuous intravenous infusion, 0.6 mg/kg/h, day 1 of 5-day infusion, geometric mean): 1600 ng/mL

Cn1cc(Nc2nccc(-c3ccc4c(c3)CN(C3COC3)CC[C@H]4NC(=O)c3cn(C(C)(C)C)nn3)n2)cn1
monocyte count change (human, whole blood; 50 mg twice daily, day 14; baseline: pre-dose baseline): 0.85%

CCOC(=O)N1C[C@@H](c2ccccc2O)N[C@@H](c2ccc(-c3ccccc3)cc2)C1
solubility (shake-flask, LC-HRMS; aqueous buffer; 16 h, pH 6.8): < 4 µM

O=C(Nc1cnccc1Cl)N1CCN(Cc2ccc3c(c2)OC(F)(F)O3)CC1
adverse event incidence (item: Dizziness; human healthy young women; 100 mg, multiple dose): 83.3%

CCOCc1nc(O)c(-c2nnc(Cc3ccc(Cl)cn3)o2)c(O)c1-c1c(OC)cccc1OC
plasma concentration (rat, anaesthetised, cannulated, plasma; intravenous infusion, 100 µg/kg/min, 20 min after infusion stop, washout): 9.66 µM

CCC[C@H]1CC[C@H](c2ccc(C#N)cc2)CC1
placental accumulation (Sprague-Dawley rat, female, placenta; 1000 ng/mL in perfusate, 50 (unit not given), middle dose, mixture of 21 LCMs): 172 ± 76.5 ng/g

Repeated from above:
CC(=O)N[C@@H](CS)C(=O)O
effective permeability (single-pass intestinal perfusion; Wistar rat, duodenum vs jejunum): no effect

Cc1sc2ncn(CC(=O)O)c(=O)c2c1C
Kd (Ubiquitin carboxyl-terminal hydrolase 13, ZnF-UBD domain (USP13, Homo sapiens, UniProt Q92995)): > 1000 µM

C[C@@H](Oc1ccc(S(C)(=O)=O)cc1C(=O)N1C[C@@H]2C[C@]2(c2cc(C(F)(F)F)on2)C1)C(F)(F)F
half-life at steady state (young humans, plasma; oral, 50 mg once daily, multiple dose, geometric mean): 41.6 h

Clc1cc(Cl)cc([C@H]2COC[C@@H](C3CCCCC3)N2)c1
solubility (shake-flask, LC-HRMS; aqueous buffer; 16 h, pH 6.8): < 4 µM

CC(C)=CCC/C(C)=C/C(=O)O.Cc1cc(/C=C/C#N)cc(C)c1Nc1ccnc(Nc2ccc(C#N)cc2)n1
equilibrium solubility (aqueous buffer; pH 4.5): 2.04 ± 0.06 µg/mL

C=C(C)[C@@H]1CC[C@]2(NCCN3CCS(=O)(=O)CC3)CC[C@]3(C)[C@H](CC[C@@H]4[C@@]5(C)CC=C(C6=CC[C@@](CF)(C(=O)O)CC6)C(C)(C)[C@@H]5CC[C@]43C)[C@@H]12
subjects with somnolence (healthy human volunteers; oral, 500 mg, 7 days): 0%

CCOC(=O)N1C[C@@H](c2ccc(Cl)cc2)N[C@@H](c2ccc(C(F)(F)F)cc2)C1
solubility (shake-flask, LC-HRMS; aqueous buffer; 16 h, pH 6.8): < 4 µM
